Assay results pooled from the literature.
Each line is one published result; not all experiments were run side by side.
Target: Cytochrome P450 2D6 (CYP2D6, Homo sapiens, UniProt P10635)
Sequence of UniProt P10635 (whole entry, looked up): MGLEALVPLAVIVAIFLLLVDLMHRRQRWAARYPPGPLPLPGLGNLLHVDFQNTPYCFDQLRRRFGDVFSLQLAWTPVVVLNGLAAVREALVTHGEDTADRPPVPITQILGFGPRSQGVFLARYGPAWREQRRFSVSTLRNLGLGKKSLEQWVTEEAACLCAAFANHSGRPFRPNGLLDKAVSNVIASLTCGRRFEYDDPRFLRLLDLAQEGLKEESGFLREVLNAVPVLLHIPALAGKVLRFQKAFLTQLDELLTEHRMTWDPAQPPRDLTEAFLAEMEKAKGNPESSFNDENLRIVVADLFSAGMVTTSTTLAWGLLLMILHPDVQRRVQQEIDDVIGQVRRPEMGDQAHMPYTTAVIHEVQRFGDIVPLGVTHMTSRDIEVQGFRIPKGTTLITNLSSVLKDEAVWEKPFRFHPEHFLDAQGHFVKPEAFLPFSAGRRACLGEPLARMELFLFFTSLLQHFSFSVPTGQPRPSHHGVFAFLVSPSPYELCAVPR

COC1C(c2ccc(Cl)c(Cc3ccc(OC4CCOC4)cc3)c2)OC(CO)C(O)C1O (stereo not shown)
inhibition (enzyme activity, inhibitor; human, liver microsomes; 10 µM, 10 min): 16.8%

Cc1nc2ccc(S(=O)(=O)n3nc(SCc4ccc(Cl)cc4)nc3N)cc2s1
inhibition (enzyme activity, inhibitor; human, liver microsomes; 10 µM): 32%

O=C(CN1CN(c2ccccc2)C2(CCN(C(=O)c3cc4cn[nH]c4cn3)CC2)C1=O)NCC(F)(F)F
IC50 (enzyme activity, inhibitor): > 50 µM

Nc1nc(SCc2ccc(Cl)cc2)nn1S(=O)(=O)c1ccc2c(c1)CCO2
inhibition (enzyme activity, inhibitor; human, liver microsomes; 10 µM): 38%

CNC(=O)C1CCCN(C(=O)C2CC3CCC2N3C(=O)[C@@H]2C[C@@H](O)CN2C(=O)NCc2cccc(Cl)c2F)C1 (mixture of isomers)
remaining activity (enzyme activity, inhibitor, time-dependent inhibition; 50 µM, preincubated with NADPH; relative to: negative control): 131%

O=C(CN1CN(c2ccc(Cl)c(Cl)c2)C2(CCN(C(=O)c3ccc4[nH]ncc4c3)CC2)C1=O)NCC(F)(F)F
IC50 (enzyme activity, inhibitor): 1.8 µM

C=CC(=O)Nc1cc(Nc2nccc(-c3cn(C)c4ccccc34)n2)c(OCC(F)(F)F)nc1N(C)CCN(C)C
contribution to substrate depletion (substrate; 3 µM, 60 min, 2D6 isoform, liver abundance-normalized): 0.343%

O=C(CN1CN(c2ccccc2)C2(CCN(C(=O)c3ccc4[nH]ncc4n3)CC2)C1=O)NCC(F)(F)F
IC50 (enzyme activity, inhibitor): 33 µM

C=C(NC(=O)c1csc(-c2nc3c(cc2O)-c2nc(cs2)C(=O)NC(C(C)O)C(=O)NC(=C(C)OC)c2nc(cs2)C(=O)NC2c4nc(cs4)C(=O)NC(COC(=O)c4c5c6c(cccc6n4O)COC(=O)C(OC4CC(C)(O)C(N(C)C)C(C)O4)C2OC5)c2nc-3cs2)n1)C(N)=O (stereo not shown)
remaining activity (enzyme activity, inhibitor, substrate cocktail; pooled human liver microsomes; up to 50 µM, pH 7.4): > 70%

O=C(Nc1nc(C(F)(F)F)co1)C1c2ccccc2Oc2ccccc21
IC50 (enzyme activity, inhibitor; 2D6): > 30 µM

Some of these lines once more:
O=C(Nc1nc(C(F)(F)F)co1)C1c2ccccc2Oc2ccccc21
IC50 (enzyme activity, inhibitor; 2D6): > 30 µM
